Results of several laboratories.
Lines come from different studies, so protocols differ.
PLEKHA3: PLEKHA3 (Homo sapiens, UniProt Q9HB20)
UniProt Q9HB20, sequence (whole entry, looked up): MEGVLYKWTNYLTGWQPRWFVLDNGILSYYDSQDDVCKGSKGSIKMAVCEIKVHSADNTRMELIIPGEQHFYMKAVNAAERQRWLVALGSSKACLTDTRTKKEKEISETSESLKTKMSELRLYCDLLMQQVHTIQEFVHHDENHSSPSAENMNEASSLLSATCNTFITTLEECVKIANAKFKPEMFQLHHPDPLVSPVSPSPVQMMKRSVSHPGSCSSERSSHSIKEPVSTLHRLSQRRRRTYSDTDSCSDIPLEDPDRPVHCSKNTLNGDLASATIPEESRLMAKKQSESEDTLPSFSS
ADRA1B: Alpha-1B adrenergic receptor (ADRA1B, Homo sapiens, UniProt P35368)
UniProt P35368, sequence (whole entry, unmodified, looked up): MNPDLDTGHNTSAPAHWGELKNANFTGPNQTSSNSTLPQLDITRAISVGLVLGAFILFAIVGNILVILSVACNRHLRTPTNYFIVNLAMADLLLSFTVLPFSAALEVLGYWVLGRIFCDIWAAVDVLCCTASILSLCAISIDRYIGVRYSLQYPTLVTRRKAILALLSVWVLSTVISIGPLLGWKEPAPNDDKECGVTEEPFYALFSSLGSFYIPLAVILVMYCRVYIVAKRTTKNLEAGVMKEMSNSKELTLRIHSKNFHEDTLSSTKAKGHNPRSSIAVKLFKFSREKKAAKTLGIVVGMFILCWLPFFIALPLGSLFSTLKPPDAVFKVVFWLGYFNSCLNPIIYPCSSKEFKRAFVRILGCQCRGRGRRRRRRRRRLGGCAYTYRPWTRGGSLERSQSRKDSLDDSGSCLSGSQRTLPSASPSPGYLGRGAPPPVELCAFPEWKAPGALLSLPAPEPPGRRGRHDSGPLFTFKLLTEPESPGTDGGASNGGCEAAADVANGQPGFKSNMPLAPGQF
HTR2B: 5-hydroxytryptamine receptor 2B (HTR2B, Homo sapiens, UniProt P41595)
UniProt P41595, sequence (whole entry, looked up): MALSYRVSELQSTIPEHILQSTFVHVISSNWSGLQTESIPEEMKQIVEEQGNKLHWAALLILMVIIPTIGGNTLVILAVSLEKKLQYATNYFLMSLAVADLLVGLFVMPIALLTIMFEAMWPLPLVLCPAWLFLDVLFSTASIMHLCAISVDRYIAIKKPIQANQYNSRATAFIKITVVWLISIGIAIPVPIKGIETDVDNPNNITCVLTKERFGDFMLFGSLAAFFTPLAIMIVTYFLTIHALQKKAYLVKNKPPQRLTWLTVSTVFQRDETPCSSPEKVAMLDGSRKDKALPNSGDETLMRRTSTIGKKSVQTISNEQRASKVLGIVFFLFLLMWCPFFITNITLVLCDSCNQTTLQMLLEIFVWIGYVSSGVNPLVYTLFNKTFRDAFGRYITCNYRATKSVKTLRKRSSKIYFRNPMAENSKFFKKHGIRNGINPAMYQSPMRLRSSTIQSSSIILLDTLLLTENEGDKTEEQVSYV
SLC6A3: Sodium-dependent dopamine transporter (SLC6A3, Homo sapiens, UniProt Q01959)
UniProt Q01959, sequence (whole entry, looked up): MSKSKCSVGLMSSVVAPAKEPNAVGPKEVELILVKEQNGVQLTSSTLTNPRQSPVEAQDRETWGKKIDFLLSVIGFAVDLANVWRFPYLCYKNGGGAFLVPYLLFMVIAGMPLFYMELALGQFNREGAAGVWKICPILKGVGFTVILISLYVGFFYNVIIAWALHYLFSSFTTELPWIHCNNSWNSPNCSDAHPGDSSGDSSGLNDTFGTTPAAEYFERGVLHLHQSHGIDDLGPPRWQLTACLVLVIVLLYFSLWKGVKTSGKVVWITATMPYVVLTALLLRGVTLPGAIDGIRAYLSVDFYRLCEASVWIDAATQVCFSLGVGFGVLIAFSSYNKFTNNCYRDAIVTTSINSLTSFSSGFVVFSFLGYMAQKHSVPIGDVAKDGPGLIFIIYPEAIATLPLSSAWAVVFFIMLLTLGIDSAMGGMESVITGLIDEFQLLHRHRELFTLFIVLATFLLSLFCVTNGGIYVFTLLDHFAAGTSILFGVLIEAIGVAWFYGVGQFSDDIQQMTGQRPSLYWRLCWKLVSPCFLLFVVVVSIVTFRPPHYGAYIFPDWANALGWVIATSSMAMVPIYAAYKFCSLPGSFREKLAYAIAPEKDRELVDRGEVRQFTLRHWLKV
ADRA2A: Alpha-2A adrenergic receptor (ADRA2A, Homo sapiens, UniProt P08913)
UniProt P08913, sequence (whole entry, looked up): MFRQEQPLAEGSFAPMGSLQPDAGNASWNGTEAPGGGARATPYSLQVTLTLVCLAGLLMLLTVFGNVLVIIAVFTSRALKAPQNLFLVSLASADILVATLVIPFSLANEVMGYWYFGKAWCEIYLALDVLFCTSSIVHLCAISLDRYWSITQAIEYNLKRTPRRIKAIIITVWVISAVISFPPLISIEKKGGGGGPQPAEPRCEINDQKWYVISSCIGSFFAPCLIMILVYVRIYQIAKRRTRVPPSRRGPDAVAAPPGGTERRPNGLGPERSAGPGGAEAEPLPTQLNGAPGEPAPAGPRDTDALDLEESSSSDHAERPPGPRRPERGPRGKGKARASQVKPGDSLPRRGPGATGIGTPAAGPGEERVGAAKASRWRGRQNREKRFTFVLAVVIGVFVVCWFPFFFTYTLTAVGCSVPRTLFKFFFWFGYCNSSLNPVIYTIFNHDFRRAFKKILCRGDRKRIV
UniProt Q92769, sequence (whole entry, looked up): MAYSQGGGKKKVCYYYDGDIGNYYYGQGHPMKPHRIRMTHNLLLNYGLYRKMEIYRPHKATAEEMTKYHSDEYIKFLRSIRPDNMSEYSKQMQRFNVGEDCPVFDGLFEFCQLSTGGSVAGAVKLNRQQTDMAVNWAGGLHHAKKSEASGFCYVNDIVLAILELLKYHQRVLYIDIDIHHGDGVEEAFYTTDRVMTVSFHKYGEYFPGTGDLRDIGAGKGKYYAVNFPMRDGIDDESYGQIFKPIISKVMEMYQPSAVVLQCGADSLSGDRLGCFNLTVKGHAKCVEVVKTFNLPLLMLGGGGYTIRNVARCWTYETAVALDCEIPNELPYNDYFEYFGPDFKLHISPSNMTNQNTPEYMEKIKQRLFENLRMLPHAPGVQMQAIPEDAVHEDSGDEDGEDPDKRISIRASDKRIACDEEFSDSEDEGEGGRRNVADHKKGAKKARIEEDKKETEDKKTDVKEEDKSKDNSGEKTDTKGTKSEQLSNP
UniProt P48147, sequence (whole entry, looked up): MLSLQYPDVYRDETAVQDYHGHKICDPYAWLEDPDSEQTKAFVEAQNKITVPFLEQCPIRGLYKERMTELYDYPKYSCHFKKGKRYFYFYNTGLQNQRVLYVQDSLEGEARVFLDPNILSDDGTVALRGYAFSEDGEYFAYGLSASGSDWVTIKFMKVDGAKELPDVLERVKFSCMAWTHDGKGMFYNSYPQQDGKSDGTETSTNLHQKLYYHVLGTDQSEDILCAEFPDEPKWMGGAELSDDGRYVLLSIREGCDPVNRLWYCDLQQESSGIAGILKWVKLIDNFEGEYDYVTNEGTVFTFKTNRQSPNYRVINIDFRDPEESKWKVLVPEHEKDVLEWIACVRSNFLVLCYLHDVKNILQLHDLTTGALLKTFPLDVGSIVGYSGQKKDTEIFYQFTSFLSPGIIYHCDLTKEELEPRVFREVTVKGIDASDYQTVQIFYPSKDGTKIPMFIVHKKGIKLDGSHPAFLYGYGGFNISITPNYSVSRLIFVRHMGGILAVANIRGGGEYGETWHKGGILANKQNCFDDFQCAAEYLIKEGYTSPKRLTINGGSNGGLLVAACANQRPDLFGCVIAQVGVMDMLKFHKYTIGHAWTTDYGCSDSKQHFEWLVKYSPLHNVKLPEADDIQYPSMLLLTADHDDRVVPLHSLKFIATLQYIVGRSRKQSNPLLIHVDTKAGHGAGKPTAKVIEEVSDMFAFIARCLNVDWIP
UniProt Q15391, sequence (whole entry, looked up): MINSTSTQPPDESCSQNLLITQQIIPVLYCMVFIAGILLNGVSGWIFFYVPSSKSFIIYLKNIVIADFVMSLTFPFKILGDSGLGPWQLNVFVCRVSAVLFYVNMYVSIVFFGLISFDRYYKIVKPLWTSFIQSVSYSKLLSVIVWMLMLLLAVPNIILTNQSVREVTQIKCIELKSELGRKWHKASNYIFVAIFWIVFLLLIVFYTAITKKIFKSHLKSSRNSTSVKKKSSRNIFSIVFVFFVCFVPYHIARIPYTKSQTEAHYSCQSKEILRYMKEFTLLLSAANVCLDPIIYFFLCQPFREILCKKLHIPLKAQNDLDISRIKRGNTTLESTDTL
UniProt P11712, sequence (whole entry, looked up): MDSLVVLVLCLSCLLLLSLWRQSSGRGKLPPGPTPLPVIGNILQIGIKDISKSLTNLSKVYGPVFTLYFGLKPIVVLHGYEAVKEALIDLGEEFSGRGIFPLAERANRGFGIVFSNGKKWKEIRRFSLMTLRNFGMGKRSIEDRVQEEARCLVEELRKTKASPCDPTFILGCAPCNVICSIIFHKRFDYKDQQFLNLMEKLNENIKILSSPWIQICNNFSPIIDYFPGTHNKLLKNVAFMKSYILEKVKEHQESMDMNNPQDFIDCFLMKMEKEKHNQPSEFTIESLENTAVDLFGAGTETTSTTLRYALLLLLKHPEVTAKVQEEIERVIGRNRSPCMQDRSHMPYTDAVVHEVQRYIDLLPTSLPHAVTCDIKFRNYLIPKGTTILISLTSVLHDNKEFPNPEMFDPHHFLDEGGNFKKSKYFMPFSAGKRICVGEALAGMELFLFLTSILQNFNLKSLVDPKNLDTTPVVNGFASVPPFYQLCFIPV
UniProt P48039, sequence (whole entry, looked up): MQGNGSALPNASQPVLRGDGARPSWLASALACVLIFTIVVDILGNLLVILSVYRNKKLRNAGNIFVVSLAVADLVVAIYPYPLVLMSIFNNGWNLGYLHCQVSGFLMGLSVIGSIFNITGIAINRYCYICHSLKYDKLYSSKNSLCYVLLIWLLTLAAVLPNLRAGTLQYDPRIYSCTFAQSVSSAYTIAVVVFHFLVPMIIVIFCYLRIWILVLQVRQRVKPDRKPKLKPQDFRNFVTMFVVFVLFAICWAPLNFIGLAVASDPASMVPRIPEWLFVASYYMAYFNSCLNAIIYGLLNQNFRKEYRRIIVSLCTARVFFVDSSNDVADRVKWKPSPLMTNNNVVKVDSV

`C#CCOc1cccc(C(=O)CC(SCc2cccc(Br)c2)C(=O)O)c1` (centres unmarked) has a Ki of 5560 nM (PLEKHA3; ligand displacement, FP).
For `Cc1cc(Oc2ncccc2CN2CCN(c3ccccc3C)CC2)ccc1-c1c(C)c(=O)[nH]c(=O)n1C`, the Ki was 1270 nM (ADRA1B; ligand displacement, radioligand).
`N#C[C@@]12C[C@@H]1[C@@H](n1cnc3c(N[C@@H]4CCC(F)(F)C4)nc(I)nc31)[C@H](O)[C@@H]2O` has a Ki of 13.4 nM (HTR2B; ligand displacement, radioligand).
`Cc1cc(Oc2ncccc2CN2CCN(c3ccccc3Br)CC2)ccc1-c1c(C)c(=O)[nH]c(=O)n1C` gave a Ki of 736 nM (ADRA1B; ligand displacement, radioligand).
For `Cc1nn(CCc2ccccc2)c2ncc(C(=O)NCc3cccnc3)c(Cl)c12`, the Ki was 18000 nM (PREP (Homo sapiens, UniProt P48147); enzyme activity, inhibitor, fluorescence).
`CC(C)c1ccc(CNc2cccc(-c3nnc[nH]3)c2)cc1` has a Ki of 851 nM (MTNR1A (Homo sapiens, UniProt P48039); cell-free assay).
`CCCNc1nc(I)nc2c1ncn2[C@H]1[C@H](O)[C@H](O)[C@]2(C#N)C[C@H]12` gave a Ki of 40 nM (HTR2B; ligand displacement, radioligand).
For `O=C(NO)c1cncc(OS(=O)(=O)Oc2ccc(-n3ccnc3)cc2)c1`, the Ki was 319 nM (HDAC2 (Homo sapiens, UniProt Q92769); enzyme activity, inhibitor, fluorescence).
`Cc1cc(Oc2ncccc2CN2CCN(c3ccc(F)cc3F)CC2)ccc1-c1c(C)c(=O)[nH]c(=O)n1C` has a Ki of 2900 nM (ADRA1B; ligand displacement, radioligand).
`N#CC[C@@]12C[C@@H]1[C@@H](n1cnc3c(Nc4ccccc4)nc(I)nc31)[C@H](O)[C@@H]2O` has a Ki of 1200 nM (SLC6A3; ligand displacement, radioligand).
For `Cc1cc(Oc2ncccc2CN2CCN(c3ccc(C(F)(F)F)cc3[N+](=O)[O-])CC2)ccc1-c1c(C)c(=O)[nH]c(=O)n1C`, the Ki was 3190 nM (ADRA2A; ligand displacement, radioligand).
`N#C[C@@]12C[C@@H]1[C@@H](n1cnc3c(N[C@H](C4CCC4)C4CC4)nc(I)nc31)[C@H](O)[C@@H]2O` gave a Ki of 22.1 nM (HTR2B; ligand displacement, radioligand).
`COc1ccccc1C(=O)CC(SCc1ccc(Cl)cc1)C(=O)O` (centres unmarked) has a Ki of 17600 nM (PLEKHA3; ligand displacement, FP).
`Cc1cc(Oc2ncccc2CN2CCN(c3ccccc3)CC2)ccc1-c1c(C)c(=O)[nH]c(=O)n1C` has a Ki of 56.8 nM (ADRA2A; ligand displacement, radioligand).
For `CCOc1ccc(C(=O)CC(SCc2ccccc2Br)C(=O)O)cc1` (centres unmarked), the Ki was 10100 nM (PLEKHA3; ligand displacement, FP).
The Ki of `CC(C)[C@@H](Nc1nc(Cl)nc2c1ncn2[C@H]1[C@H](O)[C@H](O)[C@]2(C#N)C[C@H]12)C1CC1` is reported as 21.3 nM (HTR2B; ligand displacement, radioligand).
For `Cc1cc(Oc2ncccc2CN2CCN(C(c3ccccc3)c3ccccc3)CC2)ccc1-c1c(C)c(=O)[nH]c(=O)n1C`, the Ki was 247 nM (ADRA2A; ligand displacement, radioligand).
`CO[C@]1(C(=O)N[C@@H](C)c2ccc(-n3cc(F)cn3)nc2)CC[C@H](c2nc(C)cc(Nc3cc(C)[nH]n3)n2)CC1` has a Ki of 4100 nM (Cytochrome P450 2C9 (CYP2C9, Homo sapiens, UniProt P11712); enzyme activity, inhibitor; human, liver microsomes).
`CCOC(=O)[C@@]12C[C@@H]1[C@@H](n1cnc3c(NCCCCCCc4ccccc4)nc(I)nc31)[C@H](O)[C@@H]2O` gave a Ki of 1200 nM (SLC6A3; ligand displacement, radioligand).
With `Cc1ccc2oc(=O)cc(NCCO)c2c1` the Ki was 182000 nM (ADRA1B (Homo sapiens, UniProt P35368, V197I); ligand displacement in cells, flow cytometry).
`CCOc1cccc(C(=O)CC(SCc2cccc(Br)c2)C(=O)O)c1` (centres unmarked) has a Ki of 4260 nM (PLEKHA3; ligand displacement, FP).
`Cc1ccc(N2CCN(Cc3cccnc3Oc3ccc(-c4c(C)c(=O)[nH]c(=O)n4C)c(C)c3)CC2)cc1C` gave a Ki of 1010 nM (ADRA1B; ligand displacement, radioligand).
`Cn1ccc(-c2ccc(-c3cc(C(=O)O)cc4cc(-c5ccc(C(F)(F)F)cc5)ccc34)cc2)n1` gave a Ki of 20.6 nM (P2Y purinoceptor 14 (P2RY14, Homo sapiens, UniProt Q15391); ligand displacement in cells, flow cytometry).

Some of these lines once more:
`Cc1ccc(N2CCN(Cc3cccnc3Oc3ccc(-c4c(C)c(=O)[nH]c(=O)n4C)c(C)c3)CC2)cc1C` gave a Ki of 1010 nM (ADRA1B; ligand displacement, radioligand).
`Cn1ccc(-c2ccc(-c3cc(C(=O)O)cc4cc(-c5ccc(C(F)(F)F)cc5)ccc34)cc2)n1` gave a Ki of 20.6 nM (P2Y purinoceptor 14 (P2RY14, Homo sapiens, UniProt Q15391); ligand displacement in cells, flow cytometry).
